Experimental data collected from several papers.
A part holds a random share of what one study measured.

Set 1 — technique: Sort-seq; refers to: YFP reporter; matrix: E. coli; setting: PhoQ-PhoP variant library; together with: 10 µM Mg2+; reference: high Mg2+ state; reading: higher = stronger signaling
Substance: PhoQ, residues 284 288 289 292 302 303 SNSSNI
PhoP, residues 12 14 15 18 19 LHHYF (Escherichia coli, UniProt P23836) — fold induction: 9.
For PhoP, residues 12 14 15 18 19 TPWTL (Escherichia coli, UniProt P23836): fold induction read 1.24.
For PhoP, residues 12 14 15 18 19 NFFVT (Escherichia coli, UniProt P23836): fold induction read 3.68.
For PhoP, residues 12 14 15 18 19 VGHWL (Escherichia coli, UniProt P23836): fold induction read 16.1.

Set 2 — technique: RNA Bind-n-Seq; form: RNA; matrix: in vitro; concentration: 1 µM; setting: whole 134-nt RNA, ends assumed; together with: 150 mM KCl; reference: input library; reading: higher = stronger binding
Target: Ras GTPase-activating protein-binding protein 1, RRM domain (G3BP1, Homo sapiens, UniProt Q13283)
Sequence of UniProt Q13283 (whole entry, looked up): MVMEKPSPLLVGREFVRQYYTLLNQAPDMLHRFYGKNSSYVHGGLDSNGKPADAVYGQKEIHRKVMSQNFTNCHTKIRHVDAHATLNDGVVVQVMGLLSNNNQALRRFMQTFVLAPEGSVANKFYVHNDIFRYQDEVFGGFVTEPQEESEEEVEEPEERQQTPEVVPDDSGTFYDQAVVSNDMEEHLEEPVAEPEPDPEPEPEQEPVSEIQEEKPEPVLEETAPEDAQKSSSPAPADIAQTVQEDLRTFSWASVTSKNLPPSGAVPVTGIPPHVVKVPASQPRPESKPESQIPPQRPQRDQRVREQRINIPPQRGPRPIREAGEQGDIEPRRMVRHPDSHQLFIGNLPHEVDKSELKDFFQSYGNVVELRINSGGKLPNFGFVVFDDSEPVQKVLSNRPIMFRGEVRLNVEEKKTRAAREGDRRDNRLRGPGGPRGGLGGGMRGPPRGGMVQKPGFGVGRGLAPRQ
Constant ends, left off below: GGGAGUUCUACAGUCCGACGAUC … UGGAAUUCUCGGGUGUCAAGG
`GUCCUGUGCUACACAUCGUAUGUACCGAAUCGGGGUGGGGUUUUUGGGGAAAAAGGGGAAAGUAUUAUGUUACGCCGUUCGGAUCUGCAC` has a log2 enrichment of 0.806.
For `AAGUCCUGUGCUACACAUCGUAUGUACCGAAUCGGGGAGGGGUUUUUGGGGUGGGGAAAGUAUUAUGUUACGCCGUUCGGAUCUGCACUU`, the log2 enrichment was 0.84.
`UGGCCCUGGUGGCAUGCGGGGAGGAAGAGGUGGCCUCAUGGAUCGUGGUGGUCCCGGUGGAAUGUUCAGAGGUGGCCGUAGUGGAGACAG` gave a log2 enrichment of 1.8.
`UCCUGUGCUACACAUCGUAUGUACCGAAUCGGGAAAAAAAGGGAAAAAAAGGGAAAGGGAAAGUAUUAUGUUACGCCGUUCGGAUCUGCA` gave a log2 enrichment of 0.0827.
`UAACUUUAGAGGAGGAUCUGAUGGAUAUGGCAGUGGACGUGGAUUUGGGGAUGGCUAUAAUGGGUAUGGAGGAGGAACUGGAGGUGGCAA` gave a log2 enrichment of -0.567.
With `UUCCCUGUACCGGCAGAGUUCACAAACACAUUUGAAGAGGCUUUUUCUCAGGAUUCUUAACCUUCCCAAAGGAAGUCCCAUGGAUGGGUU` the log2 enrichment was -0.213.
The log2 enrichment of `CCUCAAGUCCUGUGCUACACAUCGUAUGUACCGAAUCGGGAAGGAAGGAAGGAAAGUAUUAUGUUACGCCGUUCGGAUCUGCACUUCCAG` is reported as -0.128.
`UCAAGUCCUGUGCUACACAUCGUAUGUACCGAAUCGGGUUUGGGAAAGGGUGGGAAAGUAUUAUGUUACGCCGUUCGGAUCUGCACUUCC` has a log2 enrichment of 0.727.
`CAAGUCCUGUGCUACACAUCGUAUGUACCGAAUCGGGCCCCGGCCCCGGCCCCGGGAAAGUAUUAUGUUACGCCGUUCGGAUCUGCACUU` gave a log2 enrichment of -1.44.

Set 3 — technique: universal PBM; form: double-stranded DNA, one strand shown; matrix: in vitro; concentration: not given; reading: higher = stronger binding
Target: Sal-like protein 4, full length isoform B (SALL4, Homo sapiens, UniProt Q9UJQ4-2, residues 1-616)
Setting: 8-mer, flanks averaged, mean of replicates
Construct (chain): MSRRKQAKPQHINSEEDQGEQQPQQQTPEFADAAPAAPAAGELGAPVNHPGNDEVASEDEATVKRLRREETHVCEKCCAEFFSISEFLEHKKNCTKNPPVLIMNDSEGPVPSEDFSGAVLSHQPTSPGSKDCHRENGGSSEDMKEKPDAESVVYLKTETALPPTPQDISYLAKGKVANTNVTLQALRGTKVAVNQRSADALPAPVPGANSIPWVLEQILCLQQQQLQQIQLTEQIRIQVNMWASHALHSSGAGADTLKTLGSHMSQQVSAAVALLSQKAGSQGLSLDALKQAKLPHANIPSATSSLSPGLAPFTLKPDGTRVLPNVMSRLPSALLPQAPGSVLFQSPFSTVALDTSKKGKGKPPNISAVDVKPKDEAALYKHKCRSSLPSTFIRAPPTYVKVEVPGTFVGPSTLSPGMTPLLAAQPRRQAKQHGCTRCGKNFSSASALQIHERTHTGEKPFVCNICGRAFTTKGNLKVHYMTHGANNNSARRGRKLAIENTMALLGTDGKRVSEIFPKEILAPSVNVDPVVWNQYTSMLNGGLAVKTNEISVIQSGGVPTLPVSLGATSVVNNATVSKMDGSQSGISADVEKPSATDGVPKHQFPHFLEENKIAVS
With `GCTGAAGA` the E-score was -0.0887.
With `GACATAAC` the E-score was 0.198.
With `AGGATCAT` the E-score was 0.0818.
`CGAGCCGA` gave an E-score of -0.287.
`ATAATGCC` has an E-score of 0.0922.
With `CATTGTCG` the E-score was 0.0162.
`TAGAGAAA` has an E-score of 0.0302.
`CCGAACGC` gave an E-score of -0.284.
With `TATTCACA` the E-score was 0.247.
`AGGTACCC` has an E-score of -0.307.

Set 4 — technique: protein binding microarray; form: double-stranded DNA, one strand shown; matrix: in vitro; concentration: not given; reference: not given; reading: higher = stronger binding
Target: Histone acetyltransferase KAT6A, winged helix 1, GST fusion (KAT6A, Homo sapiens, UniProt Q92794, residues 1-85)
Setting: 8-mer, flanks averaged, mean of 2 arrays, mostly near background
Residues (chain): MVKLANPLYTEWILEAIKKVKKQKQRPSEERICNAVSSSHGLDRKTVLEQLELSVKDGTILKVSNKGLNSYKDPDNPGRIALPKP
With `CAACTAAG` the E-score was -0.181.
`CTCTTGAA` gave an E-score of -0.251.
The E-score of `ACCTCCCG` is reported as 0.264.
With `ACCTGTCC` the E-score was -0.0794.
`GTTGCAGA` gave an E-score of -0.0956.
The E-score of `AGTACCCG` is reported as 0.121.
`GGGGGGGA` has an E-score of -0.042.
The E-score of `CCTAAGTA` is reported as -0.0692.
`GTACTTCA` gave an E-score of 0.041.
With `ACCTGTAG` the E-score was -0.0672.
For `AGAGGTCG`, the E-score was -0.063.
With `GAGTCTGA` the E-score was -0.226.
The E-score of `GCAAGTAC` is reported as -0.0972.
The E-score of `CTGTATTA` is reported as 0.0492.
`ATACCTGA` has an E-score of -0.0174.
`CGTCTTGA` gave an E-score of -0.138.
The E-score of `CACTTATA` is reported as -0.0593.
With `TTATGGAA` the E-score was -0.146.
With `ACGTCTAC` the E-score was -0.143.
With `AGGATGAC` the E-score was -0.0459.
With `AAGAACAC` the E-score was -0.0591.
The E-score of `GGAGGCAA` is reported as -0.0326.

Set 5 — technique: RNA Bind-n-Seq; form: RNA; matrix: in vitro; concentration: not given; reference: input RNA pool; reading: higher = stronger binding
Target: RING finger protein unkempt homolog, zinc fingers 1-6, GST-SBP tag (UNK, Homo sapiens, UniProt Q9C0B0, residues 30-357)
Sequence of UniProt Q9C0B0 (30-357, looked up): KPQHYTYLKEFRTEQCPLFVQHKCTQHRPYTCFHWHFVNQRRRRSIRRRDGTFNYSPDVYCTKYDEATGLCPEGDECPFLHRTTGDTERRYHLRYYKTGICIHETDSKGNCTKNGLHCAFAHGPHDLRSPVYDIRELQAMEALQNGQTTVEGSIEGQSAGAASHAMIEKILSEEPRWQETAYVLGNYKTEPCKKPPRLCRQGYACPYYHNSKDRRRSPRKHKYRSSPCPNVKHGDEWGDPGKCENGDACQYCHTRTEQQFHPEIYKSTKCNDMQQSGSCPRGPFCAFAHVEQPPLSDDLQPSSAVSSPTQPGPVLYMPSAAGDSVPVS
Setting: RNA with constant flanks, human and mouse sites, ends assumed
Constant ends, left off below: GGGAGUUCUACAGUCCGACGAUC … CAACAGAGGAUUGAGCAUCA
With `GACAUCCAAGAUGAGAUGGGCAGACACGAAGUGGGCCACAUCGACAAUUCCAUGAAGAUCCCGCUGAAUAAUGGAGCCGGCUGCCGCUUCGAGGGCCAGUUCAGCAUCAACAAGGUUCCC` the bound/input enrichment was 0.102 ratio.
`GAAUCCGCUUGUCAGUCUCGCAAGAAGAAGAAAGAAUAUAUGCUAGGGUUAGAGGCGAGAUUAAAGGCUGCCCUCUCAGAAAACGAGCAACUGAAGAAAGAAAAUGGAACACUGAAGCGG` gave a bound/input enrichment of 0.511 ratio.
`AGCUUGCAUGCUAUGGAGUCUACCAGAGAGUCAUUGAAAGCAGAACUGGGAACUGAUUUGCUUUCUCAACUGAGUUUGGAAGAUCAGAAGAGAGUAGAUGCACUGAAUGAUGAGAUUCGU` gave a bound/input enrichment of 0.104 ratio.
`AACAUUACUGUGCUAAGGAGCCAGUGUGAUGCUGCUUCCCAGACGGUUACUGGUCAUCAUUUAGAAACCCAUGAUUUAAAGAUUCUCAUUAGCUCUGGACAGCAGAAGUCAUUGGCUAAA` gave a bound/input enrichment of 0.141 ratio.
For `CCUUCUUCUCAAACUAAGGAGCAACCUGGAUCCCCACACUCUGUAUCUGGAGAGAUCUUGGGUCAGGAAAAGCCCACAUACAGGUCGCCGUCUGGCGGUCUUCCUGUUUCUACCCAUCCA`, the bound/input enrichment was 0.226 ratio.

Repeated from above (set 3):
With `GCTGAAGA` the E-score was -0.0887.
`CCGAACGC` gave an E-score of -0.284.
`AGGTACCC` has an E-score of -0.307.
With `TATTCACA` the E-score was 0.247.
`CGAGCCGA` gave an E-score of -0.287.
`ATAATGCC` has an E-score of 0.0922.
With `AGGATCAT` the E-score was 0.0818.
